# Experimental data collected from several papers.
# Numbered parts are unrelated; each lists some results of a single study.

# Block 1 — method: protein-binding microarray; molecule type: double-stranded DNA, one strand shown; medium: in vitro; concentration: 0.8 µM; setting: whole 60-bp probe, no competitor; direction: higher = stronger binding; all sequences stand within: … GTCTTGATTCGCTTGACGCTGCTG
# Target: Centromere-binding protein 1, full length, N-terminal tag (CBF1, Saccharomyces cerevisiae, UniProt P17106, residues 1-351)
# UniProt P17106, sequence (whole entry, looked up): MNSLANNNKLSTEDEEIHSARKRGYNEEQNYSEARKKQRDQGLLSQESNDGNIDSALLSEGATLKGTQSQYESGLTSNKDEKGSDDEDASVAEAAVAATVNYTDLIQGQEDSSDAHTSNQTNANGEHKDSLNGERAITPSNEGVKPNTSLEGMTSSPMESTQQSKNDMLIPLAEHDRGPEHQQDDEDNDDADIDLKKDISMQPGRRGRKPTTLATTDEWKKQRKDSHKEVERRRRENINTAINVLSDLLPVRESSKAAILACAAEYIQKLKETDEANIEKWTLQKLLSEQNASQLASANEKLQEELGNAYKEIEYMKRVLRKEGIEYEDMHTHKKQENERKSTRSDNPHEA
Oligonucleotide,fluorescence intensity [a.u.]
CTATTCCACTTTCAGCACGTTCTCGTCATCAGGTTC,831
CTAAACTATAAATCACATGTGCTGTCAAGAGATTTC,2310
CTAATACATCACTGATACGTGCGTCTATTGCGCTTC,538
CTATTTCGAACCCGTCAGGTGCAGGCTTGGATCTTC,809
CTAACTCATTCTAATCATGCGTCCCGTAAATCTTTC,821
CCTAACTACTATAATCACCCCTTATAGCTTCGTACA,506

# Block 2 — method: aptamer microarray, sandwich; molecule type: DNA with 2'F-ANA; medium: in vitro; concentration: 200 nM; with: Cy3 exosite-II aptamer, 400 nM; direction: higher = stronger binding; oligonucleotide: GGTTGGTGTGGTTGG
# Target: Prothrombin, mature alpha-thrombin (F2, Homo sapiens, UniProt P00734)
# Setting: whole 15-mer aptamer, many near background
Modification,mean fluorescence intensity
2'F-ANA at 2 3 7 8 9 10 11 13 14,266 a.u.
2'F-ANA at 3 8 10 14 15,417 a.u.
2'F-ANA at 5 7 10 12 14,79.4 a.u.
2'F-ANA at 1 2 3 4 5 6 8 11 13,48.6 a.u.
2'F-ANA at 3 5 8 9 11 13 15,119 a.u.
2'F-ANA at 1 2 3 4 7 10 11 12 14,48.5 a.u.

# Block 3 — method: protein-binding microarray; molecule type: double-stranded DNA, one strand shown; medium: in vitro; concentration: 250 nM; setting: 60-bp whole probe; with: salmon DNA 0.4 mg/ml; relative to: random background probes; direction: higher = stronger binding
# Target: Interferon regulatory factor 7, full length, phosphomimetic (IRF7, Homo sapiens, UniProt Q92985, residues 1-503, S101K/S471D/S472D/S475D/S476D/S477D/S483D/S484D/S487D)
# UniProt Q92985, sequence (whole entry, unmodified, looked up): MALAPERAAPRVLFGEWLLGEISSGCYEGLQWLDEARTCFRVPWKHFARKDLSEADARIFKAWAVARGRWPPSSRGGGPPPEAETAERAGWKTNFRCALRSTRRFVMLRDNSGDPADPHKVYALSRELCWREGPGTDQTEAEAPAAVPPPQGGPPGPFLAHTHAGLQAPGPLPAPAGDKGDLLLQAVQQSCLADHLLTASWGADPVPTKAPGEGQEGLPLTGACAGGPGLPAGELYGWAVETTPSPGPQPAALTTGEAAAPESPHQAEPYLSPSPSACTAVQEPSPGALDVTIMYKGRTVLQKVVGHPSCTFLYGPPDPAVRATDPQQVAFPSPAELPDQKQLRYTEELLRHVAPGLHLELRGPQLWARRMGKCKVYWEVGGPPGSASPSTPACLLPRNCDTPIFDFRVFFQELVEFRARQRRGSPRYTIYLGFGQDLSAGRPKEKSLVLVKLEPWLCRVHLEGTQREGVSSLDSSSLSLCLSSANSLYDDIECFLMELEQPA
# All sequences stand within: GCCTAGCAC … GTGCTAGGTCTTGATTCGCTTGACGCTGCTG
Oligonucleotide,log fluorescence
AGCAGGGCTGATGCTCCCCT,-1.25 z-score
TCACATACGAGTTTCCAACT,0.877 z-score
AACGGTTTCGGTTCCGGGAC,12.6 z-score
GACGGACTGCTTATCCTAAC,-0.0638 z-score
CTAGTTTTACTTTCTATGTC,2.83 z-score
GATGGACTGCTACTGCTGAC,-0.94 z-score

# Further values, each from its own experiment
Molecule,target,assay,test system,conditions,scale,measurement,result
"PhoQ, residues 284 288 289 292 302 303 QWQEDG","PhoP, residues 12 14 15 18 19 NQGLL (Escherichia coli, UniProt P23836)","Sort-seq, refers to: YFP reporter",E. coli,"PhoQ-PhoP variant library, with: 10 µM Mg2+","relative to: high Mg2+ state, higher = stronger signaling",fold induction,4.94
